Assay results collected from several papers.
Lines come from different studies, so protocols differ. ± gives the spread as reported.

Under “decrease in exposure”, `COc1cc2ncnc(Oc3ccc4c(C(N)=O)c(C)oc4c3)c2cc1OC` is recorded as ~47% (item: Cmax; human, severe renal impairment; oral; reference: normal renal function).
With `CCC(C)N(C)C(=O)c1nc(-c2cccc(C(F)(F)[18F])c2)c2ccccc2n1` (stereo not shown) the radiochemical purity was > 99% (0.1% BSA; 6 h, 37 °C).
`C[Si]1(C[C@H](CN)CC(=O)O)CCCC1` gave a performance time of 180 s (neuromuscular coordination; Wistar rat male; oral, 30 mg/kg, 2 h).
`Cn1c(=O)oc2ccc(-c3ccc(CC(C#N)NC(=O)C4CNCCCO4)c(F)c3)cc21` (stereo not shown) — result for “subjects with TEAE”: 0% (item: skin exfoliation; human; 40 mg single dose, fasted).
The absorption maximum of `COc1ccc(/C=C/c2ccc(-c3ccc(C)cn3)nc2)cc1` is reported as 374 nm (acetonitrile; zinc complex).
`O=C(CCCCC[N+]#[C][99Tc-5]([C]#[N+]CCCCCC(=O)N[C@H]1C(O)O[C@H](CO)[C@@H](O)[C@@H]1O)([C]#[N+]CCCCCC(=O)N[C@H]1C(O)O[C@H](CO)[C@@H](O)[C@@H]1O)([C]#[N+]CCCCCC(=O)N[C@H]1C(O)O[C@H](CO)[C@@H](O)[C@@H]1O)([C]#[N+]CCCCCC(=O)N[C@H]1C(O)O[C@H](CO)[C@@H](O)[C@@H]1O)[C]#[N+]CCCCCC(=O)N[C@H]1C(O)O[C@H](CO)[C@@H](O)[C@@H]1O)N[C@H]1C(O)O[C@H](CO)[C@@H](O)[C@@H]1O` (stereo partly shown) gave a blood uptake of 13 ± 0.88 %ID/g (healthy CD-1 mouse, blood; 2 min).
With `C[C@H](Oc1cc(-c2cnn(C3CCN(CC[18F])CC3)c2)cnc1N)c1c(Cl)ccc(F)c1Cl` the tracer uptake was 4.9 ± 1.9 %ID/cc (PET imaging; nude mouse, liver; iv, 30 min post injection).
`CC#N.[Ru+2].c1ccc(-c2cccc(-c3ccccn3)n2)nc1.c1ccc(-c2ccccn2)nc1`: “photosubstitution quantum yield” 0.0125 (water; 470 nm light).
`C=C(C)C(=O)Nc1ccc(-c2c(-c3ccc(Oc4nccc(C)n4)cc3)c3c(N)ncnc3n2C)cc1` gave a hepatocyte CLint of 28 µL/min/10⁶ cells (metabolic stability; dog, hepatocytes).
With `COc1cc2c(cc1OC)CN(CCCCn1ccc3cc(OCC[18F])ccc31)C2` the uptake was 1.62 ± 0.54 %ID/organ (ICR mice, male, stomach; intravenous, 2 min).
Under “patients with treatment-related adverse event”, `CC(C)c1cnc(-c2cc(Cl)ccc2F)cc1Nc1ccncc1C(=O)NC(CO)CO` is recorded as 9.5% (monotherapy, item: vomiting; human patients; oral, dose not given, grade 1, phase I A).
`CC[C@H](C)[C@H](NC(=O)CNC(=O)CNC(=O)c1ccc2c(c1)C(=O)OC21c2ccc(O)cc2Oc2cc(O)ccc21)C(=O)N[C@@H](Cc1ccc(O)cc1)C(=O)N[C@@H](C)C(=O)N(C)CC(=O)N1CCC[C@H]1C(=O)N(C)[C@@H](Cc1ccccc1)C(=O)N[C@@H](CCCCN)C(=O)N[C@@H](CCCCN)C(=O)N[C@@H](CCCCN)C(=O)O`: “5-residue fragment share” 17 ± 0.6% (CE-LIF; Baf/BCR-ABL cytosolic lysate (mouse); 60 min, Ala-sarcosine cleavage).
`C[Si](C)(C)C[C@H](CN)CC(=O)O` has a performance time of 180 s (neuromuscular coordination; Wistar rat male; oral, 300 mg/kg, 1 h).
`Cc1ccc(OCC(=O)O)cc1` has a t1/2 of 2.47 h (Sprague-Dawley rat, female, plasma; oral, 30 mg/kg/day of parent drug, day 1, 90-day repeated dosing).
Under “second excitation maximum”, `NCCC(=O)N1Cc2ccccc2-c2c(nnn2-c2cn(C3OC(CO)C(O)C3O)c(=O)[nH]c2=O)-c2ccccc21` (mixture of isomers) is recorded as 370 nm (methanol; red edge of spectrum).
`CCc1cc(C)n2nc(-c3ccc(OCC[18F])cc3)c(CC(=O)N(CC)CC)c2n1` — result for “parent radioligand in plasma”: 94% (rat, plasma; first 2 min after injection).
`COC(=O)C1OC(Oc2c(-c3ccccc3)oc3cc(O)c(O)c(O)c3c2=O)C(O)C(O)C1O` (stereo not shown) has an organ weight of 0.19 ± 0.02 g (BALB/c mouse, thymus; 5 mg/kg).
For `C=C(c1ccc(C(=O)O)c(F)c1)c1cc2c(cc1C)C(C)(C)C=CC2(C)C`, the LDL level was 19 ± 2.6 mg/dL (Sprague-Dawley rat, male, plasma; oral, 100 mg/kg, 2 h, sesame oil vehicle).
`CCCCCCC(=O)C(=O)C(O)CO` (stereo not shown) — result for “surface tension decrease”: ~17 mN/m (aqueous buffer; 1 to 5 mM, pH 7.4).
`O=Cc1ccc(C2CCCCO2)o1` (stereo not shown) has an equilibrium solubility of ~13.5 mg/mL (UV; 40% PEG 400 in water; 48 h, 25 °C).
With `N=C(N)NCCC[C@@H]1NC(=O)[C@H](Cc2c[nH]c3ccccc23)NC(=O)[C@@H](CC2CCCCC2)NC(=O)[C@@H]2CCCN2C(=O)[C@@H](NC(=O)CCc2ccccc2)CCCNC1=O` the Tmax was 0.331 h (C57BL/6J mice, brain; intraperitoneal, 1 mg/kg).
Under “Kirkwood-Buff integral G1,3”, `C#CCOc1ccc(/C=C2\SC(=O)N(CC(=O)NCc3ccccc3)C2=O)cc1` is recorded as -259 cm³/mol (inverse Kirkwood-Buff integrals; binary solvent mixture; 298.15 K, mole fraction x1 0.75).
For `CCCC(CCC)NC(=O)c1ccc(OC2OC(C(=O)O)C(O)C(O)C2O)c(OC)c1` (stereo not shown), the AUC(0-last) ratio was 2.17 (male Sprague-Dawley rats, plasma; oral, 50 mg/kg of parent drug; reference: 50 over 20 mg/kg dose).
Under “AUC(0-tlast), geometric mean”, `CC12CC(c3ccc(S(C)(=O)=O)cc3)C3=C4CCC(=O)C=C4CCC3C1CCC2(O)C(F)(F)C(F)(F)F` (stereo not shown) is recorded as 317 ng·h/mL (human, fasted, plasma; oral, 4 mg, alone, without itraconazole).
The clearance of `CC(C)[C@H](NC(=O)CNC(=O)[C@H](CCC(N)=O)NC(=O)[C@H](C)N)C(=O)O` is reported as 150 mL/min/kg (healthy volunteers, LPS endotoxaemia, plasma; intravenous, 15 mg/kg/h, 2 h infusion, geometric mean, together with: LPS 2 ng/kg).
The nanofiber width of `CC(=O)N[C@@H](CCC(=O)O)C(=O)N[C@@H](CO)C(=O)NCC(=O)N[C@@H](CO)C(=O)NCC(=O)N[C@@H](CCC(N)=O)C(=O)N[C@@H](CCC(N)=O)C(=O)N[C@@H](CCCCN)C(=O)N[C@@H](Cc1ccccc1)C(=O)N[C@@H](CCC(N)=O)C(=O)N[C@@H](Cc1ccccc1)C(=O)N[C@@H](CCC(N)=O)C(=O)N[C@@H](Cc1ccccc1)C(=O)N[C@@H](CCC(=O)O)C(=O)N[C@@H](CCC(N)=O)C(=O)N[C@@H](CCC(N)=O)C(N)=O` is reported as 11.6 ± 1.58 nm (negative-stain TEM; 1× PBS; 0.2 mM).
`O=C(C1CC1)N1CCC=C(c2cc3c(Nc4cc5ncsc5cc4F)ncnc3s2)C1` has an intrinsic clearance of < 12 mL/min/g protein (human liver microsomes; 1 µM).
`CC(C)C[C@@H](NC(=O)[C@H](NC(=O)[C@H]1CCCN1)[C@H](C)O)C(=O)N[C@H](Cc1c[nH]cn1)C(=O)N[C@@H](C(=O)N[C@H](Cc1c[nH]cn1)C(=O)N[C@H](CC(N)=O)C(=O)N[C@H](CCCNC(=N)N)C(=O)N[C@H](CCCNC(=N)N)C(=O)N[C@H](CCCNC(=N)N)C(=O)N[C@H](CCCNC(=N)N)C(=O)N[C@H](CCCNC(=N)N)C(N)=O)[C@H](C)O` gave an MRT(0-inf) of 97 ± 47 h (Beagle dog, CSF; oral, 50 mg/kg).
`CC[C@H](C)[C@H](NC(=O)[C@H](C)NC(=O)[C@H](CC(N)=O)NC(=O)[C@H](CCCNC(=N)N)NC(=O)[C@H](CCCNC(=N)N)NC(=O)[C@H](CC(N)=O)NC(=O)[C@H](CCCNC(=N)N)NC(=O)[C@H](CCCNC(=N)N)NC(=O)[C@H](C)NC(=O)[C@@H](NC(=O)[C@H](CC(C)C)NC(=O)[C@@H](NC(=O)[C@@H](NC(=O)[C@H](CS)NC(=O)[C@H](CCCCN)NC(=O)[C@@H](N)CCCNC(=N)N)C(C)C)[C@@H](C)CC)C(C)C)C(=O)N[C@H](C(=O)N[C@H](C(=O)N[C@@H](CC(C)C)C(=O)N[C@@H](CS)C(=O)N[C@@H](CCCNC(=N)N)C(=O)O)[C@@H](C)CC)C(C)C` — result for “single disulfide form”: 34% (LC-MS; PBS; 0.1 mg/mL).
`CC(C)CCCC(C)CCCC(C)CCO[C@@H]1O[C@H](CO)[C@@H](O[C@H]2O[C@H](CO)[C@@H](O)[C@H](O)[C@H]2O)[C@H](O)[C@H]1O` (stereo partly shown) — result for “equilibrium surface tension”: 32.1 mN/m (dynamic surface tension; 0.0145 mmol/L).
`Oc1ccc2ccccc2c1/N=N/c1ccccc1`: “freeze-thaw stability deviation” 0.6% (rat whole blood; 16.0 µg/L, freeze-thaw cycle 2).
`NS(=O)(=O)c1ccc(N2N=C(C(F)(F)F)CC2c2ccc(F)cc2F)cc1` (stereo not shown) has an AUC(0-t) of 46700 ± 35300 ng·h/mL (Beagle dog, both sexes, plasma; oral, 4 mg/kg, single dose).
`Cc1[nH]nc2c1N=C(c1ccccc1Cl)c1cnc(N(CCO)CCO)cc1N2` gave a faecal excretion of 2.74% (human male, faeces; oral, 10 mg, 0-192 h; reference: dose).
For `C=CCc1ccc(O)c(-c2cc(CC=C)ccc2OCCCCCCCCCC[P+](c2ccccc2)(c2ccccc2)c2ccccc2)c1`, the serum AST was 320 ± 37 IU/L (C57BL/6 mouse, non-tumour-bearing; dose not given, day 31).

A few entries again:
Under “Kirkwood-Buff integral G1,3”, `C#CCOc1ccc(/C=C2\SC(=O)N(CC(=O)NCc3ccccc3)C2=O)cc1` is recorded as -259 cm³/mol (inverse Kirkwood-Buff integrals; binary solvent mixture; 298.15 K, mole fraction x1 0.75).
`C=C(C)C(=O)Nc1ccc(-c2c(-c3ccc(Oc4nccc(C)n4)cc3)c3c(N)ncnc3n2C)cc1` gave a hepatocyte CLint of 28 µL/min/10⁶ cells (metabolic stability; dog, hepatocytes).
For `C=C(c1ccc(C(=O)O)c(F)c1)c1cc2c(cc1C)C(C)(C)C=CC2(C)C`, the LDL level was 19 ± 2.6 mg/dL (Sprague-Dawley rat, male, plasma; oral, 100 mg/kg, 2 h, sesame oil vehicle).
With `C[C@H](Oc1cc(-c2cnn(C3CCN(CC[18F])CC3)c2)cnc1N)c1c(Cl)ccc(F)c1Cl` the tracer uptake was 4.9 ± 1.9 %ID/cc (PET imaging; nude mouse, liver; iv, 30 min post injection).
